Measured values gathered from unrelated publications.
Every numbered part comes from another study and shows a few of its results, in no order.

Set 1 — technique: RNA Bind-n-Seq; molecule type: RNA; sample: in vitro; tested at: 365 nM; reference: no-protein control; reading: higher = stronger binding; measurement: RBNS enrichment (R)
Target: RNA binding protein fox-1 homolog 2, RRM domain, GST-SBP tag (RBFOX2, Homo sapiens, UniProt O43251-10, residues 100-194)
Notes: natural RNA segment, single round, ends assumed
All sequences stand within: GGGAGUUCUACAGUCCGACGAUC … UGGAAUUCUCGGGUGCCAA
Construct (chain): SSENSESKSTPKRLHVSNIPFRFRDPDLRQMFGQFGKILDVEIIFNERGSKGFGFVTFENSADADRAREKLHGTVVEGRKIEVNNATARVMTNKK
UGUACCUGUGGGUCUGUCCUCUGCUCUGUGCAGAUGGGUUUUACUGUCUGCUGUGUUUUCUUACGAAAAGAGUUUCGUUCUGCCAGUGCUGUGAGUUGGGAAUUCCUGCG: 0.583
UAGUCUGACGCCACGCGCAUCUCUUGUUCUGUGUUCAAUCAGUAGUCCAGGGGAGAAGCUUCUGCUACUUCAGAGCUUUGCUAAACUAACCUAAUUUGUCCAAAUCACCC: 0.301
GUAAGGGGAGGCUGCCUCACUUUGAAGGAAUGGUGUUGGCUAACAGGAUCCAUGAAAUUCCUAGGUCAGUUGAAUAAUAACUGAACUACUGGUUUGACUGUGGAUUAUUU: 0.856
AUUCAAAGAAAGAGCAACUACUUUGGACCAAAAGCCCAUGGCCUGGGGAGCUGGGCAGGUAGAGCCCAAGCUCCAGGUGAGGCCUGGCCCUGGGCAGGGUCUGUGGCUGC: 0.596
AAGCCAGAUCGAUUUGACUUUGCUUCCAUGCUGUGUGUUCUGAAAGGACAUGGCUCUAAAAUUUCCUGUUGAUUGGCAUGUGUAUCUCAUUUAAAGCAAAAUUAGGUAGA: 6.46
AUUGGGGUCUACCAGCGUGCAUUCCAUUUCCCACUGACCAUGCAGGUGCACGUCGCGGAAAUACUGGUUUAACUACUAGUGUGUUACUGCCUCAUUUAUCUACAUAACAU: 0.319
UGGGAUGGGAGCAGAAGCCCAUGAUGGGACACUUGGGUGUGGGCCAGGGACAGGGCCUCUUUGGAAUUAGGCAGAACGACUGCCACAGCUCAGACCUCAGAGAUUGUGAA: 6.44
AGAAAUAGAGUAGACAGAAUCACACAUCAUGUGGUGGGCAGAUGGAAAUAAGUACCUGUGGUGAACAAGUUUCUACUGUAGUUGGAGAUCAUUAGAAUUGAAUUCAGUUU: 0.941
UUUAUUAGUUAAUUUAAAUGAACACUCUUAUGUUCCAGUCUUAUAAAUAAAGCCUAUAGUGCACUUCUGUUUGUGUGGUGGGUACGGAUUAUAUUGUUUUGAGGAUACAA: 0.624
CUGUAAAAUGUGUGUAAAUUUGUAUCCUUUACACAAGUUUAGUCUCUUACUCUGACACAUAGUAAUUGUGACAGCAGGGCUAAUGUUGAAGAAAAGUCAGAAGAAUCUUU: 0.692
AGCACCAUAACCAAGAAAUACUAAUGUAAAGAUUGUUUCUUGUUUCAGGAAUGGUUAAUUCUUCAACGUUGGUAUGAUAAUGAUAACUUGUUUUGACUUGAAUAAAGUAC: 0.287

Set 2 — technique: competition protein-binding microarray; molecule type: double-stranded DNA, one strand shown; sample: in vitro; tested at: 2 µM; with: Cbf1 competitor, 0.05 µM; reading: higher = stronger binding; measurement: fluorescence intensity; all sequences stand within: … GTCTTGATTCGCTTGACGCTGCTG
Target: Phosphate system positive regulatory protein PHO4, full length, GST-tagged (PHO4, Saccharomyces cerevisiae, UniProt P07270, residues 1-312)
Notes: whole 60-bp probe, lowest competitor level
Target sequence (chain): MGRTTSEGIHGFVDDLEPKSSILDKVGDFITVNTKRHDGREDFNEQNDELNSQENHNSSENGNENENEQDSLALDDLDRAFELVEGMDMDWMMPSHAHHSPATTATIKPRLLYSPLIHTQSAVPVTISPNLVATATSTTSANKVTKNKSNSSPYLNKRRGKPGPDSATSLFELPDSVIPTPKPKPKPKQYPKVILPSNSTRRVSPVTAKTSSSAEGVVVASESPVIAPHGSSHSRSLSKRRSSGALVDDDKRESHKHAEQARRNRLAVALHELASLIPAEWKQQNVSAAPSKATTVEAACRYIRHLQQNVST
CCGGCCCGTCCCGTCCGCGTGGTGAGTAATTCTGGC: 11400 a.u.
AAATTACTAAGTTGGCGGGTGGGTGACGCCGTATGA: 4450 a.u.
TAGTTGCATCATCGACACATGCAATATCAAAAGTAA: 8660 a.u.
TTGGACAAGCTGGCACACCTGATCGACGAGACACCG: 4710 a.u.
TGCGCAACAACTTGCTTTGTGGGTGTATGTCTAGAA: 4520 a.u.
GCCATTAGTTTTTTACCTGTGTGGCCATTATACATA: 4240 a.u.
TCGAGGTTCTCTTTCCCCGTGCCAGACTTGGCTTGA: 8180 a.u.
GACACATCTCTGAGCAGCATGACAGGGTTGTCCCAA: 4880 a.u.
GCTGCAGGTTCTAACCATGTGATGACAATGGATTTG: 8130 a.u.
TTGCGGGTTACAAAGCACGGGTCCATTGAAGATCTT: 8570 a.u.
GCCACATCCTTTACCCACGTGCTTTTTTAGCCAGAC: 19200 a.u.
GATAAGAGAGCACAGCACGTGGGTAAAGAGAGATAC: 18400 a.u.

Set 3 — technique: protein binding microarray; molecule type: double-stranded DNA, one strand shown; sample: in vitro; tested at: not given; reference: not given; reading: higher = stronger binding; measurement: E-score
Target: Histone acetyltransferase KAT6A, winged helix 1, GST fusion (KAT6A, Homo sapiens, UniProt Q92794, residues 1-85)
Notes: 8-mer, flanks averaged, mean of 2 arrays, mostly near background
Construct (chain): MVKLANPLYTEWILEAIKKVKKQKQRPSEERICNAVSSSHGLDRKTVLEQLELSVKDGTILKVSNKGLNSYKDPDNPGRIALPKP
GCTGTTCC: -0.0631
AAACTCTT: -0.289
GCTCATTA: 0.00741
ACCCCCAT: -0.214
AACTAAAC: -0.141
AATTTGGC: -0.163
GTAGAAAC: -0.0046
CGTCTGAG: 0.00319
CTGGTATC: -0.16

Further values, each from its own experiment
PhoQ, residues 284 288 289 292 302 303 NLALSC
fold induction (PhoP, residues 12 14 15 18 19 LFHKL (Escherichia coli, UniProt P23836); Sort-seq, refers to: YFP reporter; E. coli; PhoQ-PhoP variant library, with: 10 µM Mg2+; reference: high Mg2+ state, higher = stronger signaling): 2.3

Some of these lines once more (set 1):
CUGUAAAAUGUGUGUAAAUUUGUAUCCUUUACACAAGUUUAGUCUCUUACUCUGACACAUAGUAAUUGUGACAGCAGGGCUAAUGUUGAAGAAAAGUCAGAAGAAUCUUU: 0.692
UAGUCUGACGCCACGCGCAUCUCUUGUUCUGUGUUCAAUCAGUAGUCCAGGGGAGAAGCUUCUGCUACUUCAGAGCUUUGCUAAACUAACCUAAUUUGUCCAAAUCACCC: 0.301
UGGGAUGGGAGCAGAAGCCCAUGAUGGGACACUUGGGUGUGGGCCAGGGACAGGGCCUCUUUGGAAUUAGGCAGAACGACUGCCACAGCUCAGACCUCAGAGAUUGUGAA: 6.44
GUAAGGGGAGGCUGCCUCACUUUGAAGGAAUGGUGUUGGCUAACAGGAUCCAUGAAAUUCCUAGGUCAGUUGAAUAAUAACUGAACUACUGGUUUGACUGUGGAUUAUUU: 0.856
